Measurements from different studies.
Compare with care: the assays were run in different laboratories. ± marks the error that the study gave.
Cell line: MDA-MB-231

`Cc1ccc(S(=O)(=O)[O][Re-2]2(=[C]=O)(=[C]=O)(=[C]=O)[n+]3ccc(-c4ccccc4)c4ccc5c(-c6ccccc6)cc[n+]2c5c43)cc1` gave an IC50 of 1.27 µM (cell growth or viability, resazurin; 72 h).
`Cc1ccc(C(C)C)cc1.[Cl-].[Cl-].[Ru+2].c1ccc(P(=Nc2cccc3cccnc23)(c2ccccc2)c2ccccc2)cc1` gave an IC50 of 16.2 µM (cell growth or viability, MTT; 24 h).
With `CC12CCC3c4ccc(OCCOc5no[n+]([O-])c5S(=O)(=O)c5ccccc5)c(Br)c4CCC3C1CCC2O` (stereo not shown) the IC50 was 0.0046 µM (cell growth or viability, MTT; 48 h).
The IC50 of `CC(C)(C)N=[C](NCc1ccc(N)cc1)[AuH][Cl]` is reported as greater than 100 µM (cell growth or viability).
The IC50 of `C[C@]12CC/C(=N\O)C=C1CCC1C2CC[C@]2(C)/C(=C/c3ccccn3)CCC12` (stereo partly shown) is reported as 47.3 µM (cell growth or viability, MTT; 72 h).
For `Cc1cc(C=O)cc(C)c1Oc1cc(Nc2ccc(C#N)cn2)nc2cnccc12`, the IC50 was 74 ± 7.3 µM (48 h).
The IC50 of `Oc1ccccc1-c1nn(-c2ccccc2)[n+](-c2ccccc2)n1` is reported as 130 µM (cell growth or viability, resazurin; 72 h).
For `Cc1cc(C)c(N[C](NCc2ccc(N[C](Nc3c(C(C)C)cccc3C(C)C)=[Pd-]([Cl])([Cl])[C]#[N+]c3c(C(C)C)cccc3C(C)C)cc2)=[Au][Cl])c(C)c1`, the IC50 was 17 µM (cell growth or viability).
For `CN[C@@H](C)C(=O)N[C@H]1CN(C(=O)Cc2ccccc2)CC[C@H]2CC[C@@H](C(=O)NCc3ccc(C(C)C)cc3)N2C1=O`, the IC50 was 0.705 µM (cell growth or viability; 96 h).
`COc1ccc(/N=N/C(=S)N2CCCCC2)cc1` has an IC50 of greater than 50 µM (cell growth or viability, resazurin; 48 h).
The IC50 of `COc1c(C)c(OS(=O)(=O)c2ccccc2)c(C)c2c1C(=O)CC(c1ccccc1)O2` (stereo not shown) is reported as greater than 50 µM (cell growth or viability, SRB; 72 h).
`C[n+]1ccn(CC(O)c2ccccc2)[c]1[Ag-][I]` (stereo not shown) gave an IC50 of 43.5 µM (cell growth or viability, MTT; 72 h).
`C#CCNC(=O)C(CC)C1CCC(C)C(C(C)C(O)C(C)C(=O)C(CC)C2OC3(C=CC(O)C4(CCC(C)(C5CCC(O)(CC)C(C)O5)O4)O3)C(C)CC2C)O1` (stereo not shown) gave an IC50 of greater than 10 µM (cell growth or viability, MTT; 72 h).
`O=C(/C=C/c1ccc2c(c1)OCO2)/C=C/c1cn(-c2ccccc2)nc1C(=O)O` has an IC50 of 15.8 ± 0.88 µM (cell growth; 72 h).
`CCOC(=O)C1=C(COCc2cn(CCN3C(=O)C(=O)c4cc(Cl)ccc43)nn2)N=C2Sc3ccccc3N2C1c1cccc(Cl)c1` (stereo not shown) has an IC50 of greater than 100 µM (cell growth or viability, MTT).
`O=C(O)CNc1nc(Cl)nc(NNC(=O)c2ccc(Nc3nc(Nc4ccc(C(=O)NNc5nc(Cl)nc(NCC(=O)O)n5)cc4)nc(Nc4ccc(C(=O)NNc5nc(Cl)nc(NCC(=O)O)n5)cc4)n3)cc2)n1` gave an IC50 of 0.045 µM (cell growth or viability, MTT; 72 h).
`O=c1oc2cc(O)cc3c2c2c(cc(O)cc12)CC3` gave an IC50 of 26.3 µM (cell growth or viability, MTT; 48 h).
With `Cc1cc(C)c(-n2c3c([n+](-c4c(C)cc(C)cc4C)[c]2[Au-][Cl])-c2cccc4cccc-3c24)c(C)c1` the IC50 was 19 µM (cell growth or viability, MTT; 72 h).
`CC(=O)[C@@H]1CCCN1C(=O)[C@@H]1CCCN1C(=O)[C@H](Cc1ccccc1)N(C)C(=O)OC(C)(C)C` gave an IC50 of 6 µM (cell growth or viability, SRB).
The IC50 of `Nc1cccc[n+]1CCCCC[n+]1ccccc1N` is reported as 35.9 µM (cell growth or viability, MTT; 72 h).
For `COc1ccc([C@@H]2COc3cc(O)ccc3C2)c(OC)c1`, the IC50 was 33.5 µM (cell growth or viability, MTT; 72 h).
With `Cc1cc(C)c([N+]#[C][Pd-]([Cl])([Cl])=[C](Nc2ccc(CN[C](NC(C)(C)C)=[Au][Cl])cc2)Nc2c(C)cc(C)cc2C)c(C)c1` the IC50 was greater than 100 µM (cell growth or viability).
`N#C[CH2][Pd]1[O]c2ccc(Br)cc2C=Nc2cccnc2[N]1Cc1ccccc1` gave an IC50 of 27.5 µM (cell growth or viability, MTT; 48 h).
`CCN(CC)C1=[S+][Au-2]2([S]1)[c]1ccccc1-c1cccc[n+]12.F[P-](F)(F)(F)(F)F` (stereo not shown) gave an IC50 of 1.38 µM (cell growth or viability, MTT; 72 h).
`COc1ccc2c(c1)/C(=N/NC(N)=S)C(=O)N2CCn1cnc2c(N)ncnc21` gave an IC50 of 72.4 µM (cell growth or viability, SRB; 72 h).
`Cc1c(Cl)cccc1Nc1ccccc1C(=O)[O][Re-2]1(=[C]=O)(=[C]=O)(=[C]=O)[n+]2ccc(-c3ccccc3)c3ccc4c(-c5ccccc5)cc[n+]1c4c32` has an IC50 of 6.08 µM (cell growth or viability, resazurin; 72 h).
`CCOC(=O)C1CC(CC)C2C=CC3CCN(C(=O)C4CCC5C=CC6(CCCN6C(=O)C(Cc6ccccc6Cl)NC(C)=O)C(=O)N54)C3C(=O)N12` (stereo not shown) has an IC50 of 26 µM (cell migration).
The IC50 of `C=CC(OC(C)=O)c1ccc(OC)cc1` (stereo not shown) is reported as greater than 50 µM (MTT; 24 h).
For `Cc1cc(=O)[nH]c(=O)n1CCCCCCOC(=O)C12CCC(C)C(C)C1C1=CCC3C4(C)CCC(O)C(C)(C)C4CCC3(C)C1(C)CC2` (stereo not shown), the IC50 was roughly 10 µM (collagen biosynthesis, [3H]-proline incorporation; 24 h).
`CCCCCCCCCCCCCCCOC(=O)/C=C/c1ccc(OC)cc1` gave an IC50 of 58.2 ± 4.7 µg/mL (cell viability, MTT; 48 h, serum-free medium).
`CN[C@@H](C)C(=O)N[C@H]1CN(C(=O)Cc2ccccc2)CC[C@H]2CC[C@@H](C(=O)NCc3ccccc3C(F)(F)F)N2C1=O` has an IC50 of 0.118 µM (cell growth or viability; 96 h).
With `C[C@@H]1CC[C@@H]([C@@](O)(CNCc2ccc(F)cc2)COCc2ccccc2)[C@H](OCc2ccccc2)C1` the IC50 was 3.8 µM (cell growth or viability, MTT; 72 h).
`O=C1c2ccc(O)cc2OC1(O)Cc1ccc(O)c(O)c1` (stereo not shown) gave an IC50 of greater than 400 µM (cell growth or viability, MTT; 72 h).
`C[C@@H]1CC[C@@H]([C@](O)(CNCc2cccc(F)c2)COCc2ccccc2)[C@H](OCc2ccccc2)C1` gave an IC50 of 3.9 µM (cell growth or viability, MTT; 72 h).
With `CN[C@@H](C)C(=O)N[C@H]1CN(C(=O)Cc2ccccc2)CC[C@H]2CC[C@@H](C(=O)NCc3ccc(Cl)cc3)N2C1=O` the IC50 was 0.021 µM (cell growth or viability; 96 h).
`C#C[C@@]1(O)CCC2C3CCc4cc(Oc5no[n+]([O-])c5S(=O)(=O)c5ccccc5)ccc4C3CCC21C` (stereo partly shown) has an IC50 of 0.0132 µM (cell growth or viability, MTT; 48 h).
`CCn1cc[n+](CC)[c]1[Au-][Cl]` has an IC50 of 6.2 µM (cell growth or viability, crystal violet; 96 h).

Excerpt of the above:
`Cc1c(Cl)cccc1Nc1ccccc1C(=O)[O][Re-2]1(=[C]=O)(=[C]=O)(=[C]=O)[n+]2ccc(-c3ccccc3)c3ccc4c(-c5ccccc5)cc[n+]1c4c32` has an IC50 of 6.08 µM (cell growth or viability, resazurin; 72 h).
`CCOC(=O)C1CC(CC)C2C=CC3CCN(C(=O)C4CCC5C=CC6(CCCN6C(=O)C(Cc6ccccc6Cl)NC(C)=O)C(=O)N54)C3C(=O)N12` (stereo not shown) has an IC50 of 26 µM (cell migration).
